Experimental data gathered from unrelated publications.
Every numbered part comes from another study and shows a few of its results, in no order.

Study 1
Target: Sal-like protein 4, full length isoform A (SALL4, Homo sapiens, UniProt Q9UJQ4, residues 1-1053)
UniProt Q9UJQ4, sequence (whole entry, looked up): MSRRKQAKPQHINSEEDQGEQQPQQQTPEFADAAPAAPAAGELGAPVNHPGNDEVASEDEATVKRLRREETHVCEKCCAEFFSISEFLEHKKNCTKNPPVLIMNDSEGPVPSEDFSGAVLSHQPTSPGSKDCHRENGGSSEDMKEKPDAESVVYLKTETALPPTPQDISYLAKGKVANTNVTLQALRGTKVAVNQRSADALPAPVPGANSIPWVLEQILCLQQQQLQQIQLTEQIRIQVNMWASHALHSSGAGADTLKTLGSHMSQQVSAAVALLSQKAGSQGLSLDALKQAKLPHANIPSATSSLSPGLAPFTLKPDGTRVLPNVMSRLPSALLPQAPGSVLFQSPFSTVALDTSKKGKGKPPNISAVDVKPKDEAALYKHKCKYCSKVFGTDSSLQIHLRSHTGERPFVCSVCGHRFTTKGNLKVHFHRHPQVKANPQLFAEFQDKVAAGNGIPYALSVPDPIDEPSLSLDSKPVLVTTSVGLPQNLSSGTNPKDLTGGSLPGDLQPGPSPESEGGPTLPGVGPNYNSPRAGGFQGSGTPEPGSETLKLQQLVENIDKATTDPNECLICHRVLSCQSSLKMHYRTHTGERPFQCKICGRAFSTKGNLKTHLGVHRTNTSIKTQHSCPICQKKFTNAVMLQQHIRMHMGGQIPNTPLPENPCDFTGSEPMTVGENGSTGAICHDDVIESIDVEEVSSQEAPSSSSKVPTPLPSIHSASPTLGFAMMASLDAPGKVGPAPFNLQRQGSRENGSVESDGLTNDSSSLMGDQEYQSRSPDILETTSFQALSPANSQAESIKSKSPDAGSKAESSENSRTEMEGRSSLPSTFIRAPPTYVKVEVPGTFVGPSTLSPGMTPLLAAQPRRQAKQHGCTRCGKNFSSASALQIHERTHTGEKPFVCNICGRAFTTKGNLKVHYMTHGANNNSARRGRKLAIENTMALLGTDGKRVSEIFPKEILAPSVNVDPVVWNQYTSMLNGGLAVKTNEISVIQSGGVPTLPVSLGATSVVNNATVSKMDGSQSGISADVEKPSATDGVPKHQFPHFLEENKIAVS
Method: universal PBM
Molecule type: double-stranded DNA, one strand shown
Sample: in vitro
Concentration: 600 nM
Notes: 8-mer, flanks averaged, mean of replicates
Reading: higher = stronger binding
Sequence | E-score
ATCGAAGG | 0.117
AGTCGTAG | 0.0679
CTAAAGGC | -0.0953
GGGGTTGA | -0.177
AGAGGCTC | -0.259
GGCTATAC | -0.227
GCCTGAGC | -0.271
ATCCCTCC | -0.0639
CGACAGAG | -0.162
CGGGCTTA | -0.197
ATCGAGAA | 0.139

Study 2
Target: Interferon regulatory factor 5, full length, phosphomimetic (IRF5, Homo sapiens, UniProt Q13568-2, residues 1-514, S451D/S453D/S456D/S462D)
Method: protein-binding microarray
Molecule type: double-stranded DNA, one strand shown
Sample: in vitro
Concentration: 940 nM top
Notes: 60-bp whole probe
Together with: salmon DNA 0.4 mg/ml
Relative to: random background probes
Reading: higher = stronger binding
Constant ends, left off below: GCCTAGCAC … GTCTTGATTCGCTTGACGCTGCTG
Sequence | fitted relative affinity [z-score]
GACGGTATCGGGACTGGCGACGTGCTA | 3.44
TCATTTCTTTCAAATGAAACTGTGCTA | 0.768
GACGGTCTTGGACTGGGGACGTGCTAG | -0.294
TTAGAACTGGGACTGGATTAGTGCTAG | -0.602
AAGGAAATCGGTGATCAGTCTGTGCTA | -0.416
GACGATTTCGGGACTGGAGGCGTGCTA | -0.105
CTTAGACTGTCCTGCTGGAGGTGCTAG | -0.597

Study 3
Target: Histone acetyltransferase KAT6A, winged helix 2, GST fusion (KAT6A, Homo sapiens, UniProt Q92794, residues 85-181)
Method: protein binding microarray
Molecule type: double-stranded DNA, one strand shown
Sample: in vitro
Concentration: not given
Notes: 8-mer, flanks averaged, mean of 2 arrays, mostly near background
Relative to: not given
Reading: higher = stronger binding
Target sequence (chain): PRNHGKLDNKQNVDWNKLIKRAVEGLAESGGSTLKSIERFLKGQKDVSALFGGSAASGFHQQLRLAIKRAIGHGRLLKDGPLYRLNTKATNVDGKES
Sequence | E-score
ATGCCGAG | 0.22
TGTGTGAA | -0.0353
CTCTTGAC | -0.0965
CATTACCG | -0.031
AAACCACA | -0.142
CCGGGACC | 0.342
CCACAGGG | 0.181
GTCATAAC | -0.206

Single results of other studies
Molecule | target | test | test system | conditions | how to read | measurement | result
PhoQ, residues 284 288 289 292 302 303 NLALSC | PhoP, residues 12 14 15 18 19 GHCSL (Escherichia coli, UniProt P23836) | Sort-seq, refers to: YFP reporter | E. coli | PhoQ-PhoP variant library, together with: 10 µM Mg2+ | relative to: high Mg2+ state, higher = stronger signaling | fold induction | 8.85

Repeated from above (study 3):
Sequence | E-score
AAACCACA | -0.142
TGTGTGAA | -0.0353
CATTACCG | -0.031
